Results collected from several papers.
Each line is one published result; not all experiments were run side by side.
Target: Serine/threonine-protein kinase PLK2 (PLK2, Homo sapiens, UniProt Q9NYY3)

O=C(Cc1ccc(OCc2ccccc2)cc1)NC1(C(=O)O)CCN(C(=O)c2ccc(-c3cccc(Cl)c3)cc2)CC1  activity vs control (enzyme activity, inhibitor; 10 µM): 99%
COc1c(Cl)cccc1Nc1c(-c2ccncc2C#C[C@@]2(C)CCCN2C(=O)/C=C/CN(C)C)[nH]c2c1C(=O)NCC2  remaining binding (binding, competition with immobilised ligand; 3 µM): 97%
CCn1cc(C(=O)O)c(=O)c2c(N)c(F)c(NC3CCCCC3)cc21  inhibition (kinase activity; 0.1 µM, added: ATP at Km): -11.2%
O=C=[N][Ru-4]123([n]4c5ccc(O)cc5c5c6c(c7cc(F)c[n+]1c7c54)C(=O)NC6=O)[S+]1CC[S+]2CC[S+]3CC1 (stereo not drawn)  remaining activity (enzyme activity; 100 nM, human enzyme, added: 10 µM ATP; baseline: untreated): 96%
COc1cc(Nc2nccc(-c3cnn4nc(OC)ccc34)n2)cc(C(F)(F)F)c1  remaining binding (binding, competition with immobilised ligand; 1 µM): 100%
COc1ccc(O)cc1-c1c[nH]c2ncc(-c3cncc(C(=O)N(C)C)c3)cc12  inhibition (binding, competition with immobilised ligand; 0.2 µM): 5.87%
C=CC(=O)Nc1cc(-c2nn(C3CCN(CCNC(=O)[C@H](C)CCC45CC6CC(CC(C6)C4)C5)CC3)c3ncnc(N)c23)ccc1Oc1ccccc1  inhibition (inhibitor, KiNativ profiling; biochemical; 2 µM): 21.1%
C=CC(=O)N1CCCC(n2c(=O)c3ncccc3n(Cc3ccc(Oc4ccccc4)cc3)c2=O)C1 (stereo not drawn)  remaining binding (cell-free assay, competition with immobilised ligand; 1 µM): 69%
NC(=O)[C@@H](O)C[C@H]1CCc2sc3ncnc(O[C@H]4CC[C@H](N5CCOCC5)CC4)c3c21  inhibition (enzyme activity, inhibitor; 10 µM): 0%
Cc1nc2c(F)cc(-c3nc(Nc4ccc(CNC(=O)CCCCCCC(=O)NO)cc4)ncc3F)cc2n1C(C)C  inhibition (enzyme activity, inhibitor; 1 µM): 51%
Cc1cnc2nc1Nc1cccc(c1)COC/C=C/COCc1cc(ccc1OCCN1CCOCC1)N2  percent of control (concentration not given): 90%
COc1ccc(NC(=O)Nc2ccc3c(c2)C(=O)N(C(C)CO)CC(C)C(CN(C)Cc2ccc4c(c2)OCO4)O3)cc1 (stereo not drawn)  remaining activity (kinase activity, KinaseProfiler; 0.03 µM, species human; baseline: control): 92%
COc1cc(-n2cc3cc(F)cc(C(N)=O)c3n2)cc(Cl)c1C1CC(O)(CCO)Cc2ccccc21 (stereo not drawn)  inhibition (enzyme activity, inhibitor; 10 µM): 6.73%
CCN1CCN(Cc2ccc(C(=O)Nc3ccc(C)c(NCc4cnc5[nH]ccc5c4OC)c3)cc2C(F)(F)F)CC1  remaining binding (binding, competition with immobilised ligand; 1 µM): 100%
Nc1ncc2c(n1)-c1c([nH]c3ccc(C4=CCOCC4)cc13)CCC2  remaining binding (binding, competition with immobilised ligand; 1 µM): 87%

A few entries again:
CCN1CCN(Cc2ccc(C(=O)Nc3ccc(C)c(NCc4cnc5[nH]ccc5c4OC)c3)cc2C(F)(F)F)CC1  remaining binding (binding, competition with immobilised ligand; 1 µM): 100%
